Results gathered from unrelated publications.
± gives the spread as reported.
B1: Kcnt2 (Rattus norvegicus, UniProt Q6UVM4); sequence looked up; chain MVDLESEVPPLPPRYRFRDLLLGDQGWQNDDRVQVEFYMNENTFKERLKLFFIKNQRSSLRIRLFNFSLKLLSCLLYIIRVLLEKPSQGNDWSHIFWVNRSLPLWGLQVSVALISLFETILLGYLSYKGNIWEQILRVPFILEIINAVPFIISIFWPTLRNLFVPVFLNCWLAKHALENMINDLHRAIQRTQSAMFNQVLILISTLLCLIFTCICGIQHLERIGKKLNLFDSLYFCIVTFSTVGFGDVTPETWSSKLFVVAMICVALVVLPIQFEQLAYLWMERQKSGGNYSRHRAQTEKHVVLCVSSLKIDLLMDFLNEFYAHPRLQDYYVVILCPTEMDVQVRRVLQIPMWSQRVIYLQGSALKDQDLLRAKMDNAEACFILSSRCEVDRTSSDHQTILRAWAVKDFAPNCPLYVQILKPENKFHIKFADHVVCEEEFKYAMLALNCICPATSTLITLLVHTSRGQCVCLCCREGQQSPEQWQKTYGRCSGNEVYHIVLEESTFFAEYEGKSFTYASFHAHKKFGVCLVGVRREDNKNILLNPGPRYIMNASDICFYINITKEENSAFKNQDQQRKSNVSRSFYHGPSRLPVHSIIASMGTVAIDLQDTSCRAASGPTLALPSEGGKELRRPSIAPVLEVADTSSIQTCDLLSDQSEDETTPDEETSSNLEYAKGYPPYSPYIGSSPTFCHLLQEKVPFCCLRLDKSCQHNYYEDAKAYGFKNKLIIVAAETAGNGLYNFIVPLRAYYRPKKELNPIVLLLDNPPDMHFLDAICWFPMVYYMVGSIDNLDDLLRCGVTFAANMVVVDKESTMSAEEDYMADAKTIVNVQTLFRLFSSLSIITELTHPANMRFMQFRAKDCYSLALSKLEKKERERGSNLAFMFRLPFAAGRVFSISMLDTLLYQSFVKDYMISITRLLLGLDTIPGSGFLCSMKITEDDLWIRTYARLYQKLCSSTGDVPIGIYRTESQKLTTSESQISISVEEWEDTKDVKDPGHHRSIHRNSTSSDQSDHPLLRRKSMQWARRLSRKGPKHSGKTAEKITQQRLNLYRRSERQELAELVKNRMKHLGLSTVGYDEMNDHQSTLSYILINPSPDTRLELNDVVYLIRPDPLSYLPNSEPSRKNSICNAAVQDSREETQL
B2: CRYBB1 1-190 (Homo sapiens, UniProt P53674); sequence looked up; chain MSQAAKASASATVAVNPGPDTKGKGAPPAGTSPSPGTTLAPTTVPITSAKAAELPPGNYRLVVFELENFQGRRAEFSGECSNLADRGFDRVRSIIVSAGPWVAFEQSNFRGEMFILEKGEYPRWNTWSSSYRSDRLMSFRPIKMDAQEHKISLFEGANFKGNTIEIQGDDAPSLWVYGFSDRVGSVKVSS
B3: UGT1A9 (Homo sapiens, UniProt O60656); chain GKLLVVPMDGSHWFTMRSVVEKLILRGHEVVVVMPEVSWQLGRSLNCTVKTYSTSYTLEDLDREFKAFAHAQWKAQVRSIYSLLMGSYNDIFDLFFSNCRSLFKDKKLVEYLKESSFDAVFLDPFDNCGLIVAKYFSLPSVVFARGILCHYLEEGAQCPAPLSYVPRILLGFSDAMTFKERVRNHIMHLEEHLLCHRFFKNALEIASEILQTPVTEYDLYSHTSIWLLRTDFVLDYPKPVMPNMIFIGGINCHQGKPLPMEFEAYINASGEHGIVVFSLGSMVSEIPEKKAMAIADALGKIPQTVLWRYTGTRPSNLANNTILVKWLPQNDLLGHPMTRAFITHAGSHGVYESICNGVPMVMMPLFGDQMDNAKRMETKGAGVTLNVLEMTSEDLENALKAVINDKSYKENIMRLSSLHKDRPVEPLDLAVFWVEFVMRHKGAPHLRPAAHDLTWYQYHSLDVIGFLLAVVLTVAFITFKCCAYGYRKCLGKKGRVKKAHKSKTH
Sequence of UniProt Q08378 (whole entry, looked up): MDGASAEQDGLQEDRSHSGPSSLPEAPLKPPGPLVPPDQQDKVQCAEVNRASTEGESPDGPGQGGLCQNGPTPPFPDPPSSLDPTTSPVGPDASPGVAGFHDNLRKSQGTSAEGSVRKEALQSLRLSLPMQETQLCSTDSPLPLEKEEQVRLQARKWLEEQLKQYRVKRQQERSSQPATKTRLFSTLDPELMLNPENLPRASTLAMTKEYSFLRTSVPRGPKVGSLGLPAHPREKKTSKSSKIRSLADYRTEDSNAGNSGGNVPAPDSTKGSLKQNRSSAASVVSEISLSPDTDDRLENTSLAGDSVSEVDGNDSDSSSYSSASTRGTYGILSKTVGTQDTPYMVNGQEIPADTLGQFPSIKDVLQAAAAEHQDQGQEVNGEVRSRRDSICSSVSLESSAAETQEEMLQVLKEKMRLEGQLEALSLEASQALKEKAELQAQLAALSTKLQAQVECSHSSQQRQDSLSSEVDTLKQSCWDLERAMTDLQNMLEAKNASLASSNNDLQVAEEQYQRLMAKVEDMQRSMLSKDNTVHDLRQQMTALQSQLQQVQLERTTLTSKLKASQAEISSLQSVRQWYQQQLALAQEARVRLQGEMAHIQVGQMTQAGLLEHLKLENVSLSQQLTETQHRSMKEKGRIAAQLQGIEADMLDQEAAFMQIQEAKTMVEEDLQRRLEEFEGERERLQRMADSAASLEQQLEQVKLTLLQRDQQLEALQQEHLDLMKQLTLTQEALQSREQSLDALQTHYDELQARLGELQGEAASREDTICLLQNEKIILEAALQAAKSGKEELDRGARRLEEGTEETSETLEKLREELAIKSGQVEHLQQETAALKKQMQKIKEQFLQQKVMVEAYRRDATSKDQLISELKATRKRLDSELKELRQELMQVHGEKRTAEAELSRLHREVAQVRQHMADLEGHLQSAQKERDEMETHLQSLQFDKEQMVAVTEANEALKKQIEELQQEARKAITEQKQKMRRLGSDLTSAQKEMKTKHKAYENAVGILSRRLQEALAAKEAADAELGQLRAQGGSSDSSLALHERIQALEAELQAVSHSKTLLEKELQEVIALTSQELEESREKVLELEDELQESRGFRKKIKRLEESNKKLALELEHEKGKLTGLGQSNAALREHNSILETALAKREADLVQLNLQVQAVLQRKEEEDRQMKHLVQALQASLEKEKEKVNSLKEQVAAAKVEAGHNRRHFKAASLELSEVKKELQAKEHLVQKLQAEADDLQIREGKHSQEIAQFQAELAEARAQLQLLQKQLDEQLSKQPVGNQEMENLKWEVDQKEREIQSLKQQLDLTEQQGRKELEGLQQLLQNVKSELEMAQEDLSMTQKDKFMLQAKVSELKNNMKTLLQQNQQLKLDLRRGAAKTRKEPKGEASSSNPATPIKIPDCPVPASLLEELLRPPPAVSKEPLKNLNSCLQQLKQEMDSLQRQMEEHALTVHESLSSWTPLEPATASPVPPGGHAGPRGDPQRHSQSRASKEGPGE
Sequence of UniProt O09100 (whole entry, looked up): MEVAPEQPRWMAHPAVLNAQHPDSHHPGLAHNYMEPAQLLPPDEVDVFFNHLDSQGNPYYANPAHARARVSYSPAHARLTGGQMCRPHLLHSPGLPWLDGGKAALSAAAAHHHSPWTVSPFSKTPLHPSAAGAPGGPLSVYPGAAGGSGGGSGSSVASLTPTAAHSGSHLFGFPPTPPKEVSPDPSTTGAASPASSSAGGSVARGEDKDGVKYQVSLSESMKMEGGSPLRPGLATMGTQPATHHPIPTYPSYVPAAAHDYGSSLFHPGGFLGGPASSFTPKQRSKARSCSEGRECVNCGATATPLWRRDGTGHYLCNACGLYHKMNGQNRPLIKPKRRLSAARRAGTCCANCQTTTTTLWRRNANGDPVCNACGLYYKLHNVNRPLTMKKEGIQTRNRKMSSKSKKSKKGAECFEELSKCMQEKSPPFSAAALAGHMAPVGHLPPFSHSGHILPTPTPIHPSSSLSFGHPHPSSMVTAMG
Sequence of UniProt P09038 (whole entry, looked up): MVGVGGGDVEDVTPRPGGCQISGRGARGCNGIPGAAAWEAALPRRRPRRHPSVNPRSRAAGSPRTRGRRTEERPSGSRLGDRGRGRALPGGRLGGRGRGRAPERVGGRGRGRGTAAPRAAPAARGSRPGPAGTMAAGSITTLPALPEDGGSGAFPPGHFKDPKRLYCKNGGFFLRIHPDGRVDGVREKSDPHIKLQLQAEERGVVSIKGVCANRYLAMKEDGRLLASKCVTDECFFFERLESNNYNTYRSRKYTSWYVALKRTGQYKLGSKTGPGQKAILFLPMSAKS
Sequence of UniProt P32245 (whole entry, looked up): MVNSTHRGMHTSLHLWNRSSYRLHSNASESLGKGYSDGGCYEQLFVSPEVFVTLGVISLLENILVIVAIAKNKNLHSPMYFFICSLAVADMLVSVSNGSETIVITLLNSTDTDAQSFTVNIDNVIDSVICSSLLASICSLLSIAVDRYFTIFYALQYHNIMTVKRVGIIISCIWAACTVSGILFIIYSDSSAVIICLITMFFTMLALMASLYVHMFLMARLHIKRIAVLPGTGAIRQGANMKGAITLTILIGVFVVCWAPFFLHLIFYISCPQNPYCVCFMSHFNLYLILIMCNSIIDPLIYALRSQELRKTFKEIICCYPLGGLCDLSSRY
Sequence of UniProt P02453 (whole entry, looked up): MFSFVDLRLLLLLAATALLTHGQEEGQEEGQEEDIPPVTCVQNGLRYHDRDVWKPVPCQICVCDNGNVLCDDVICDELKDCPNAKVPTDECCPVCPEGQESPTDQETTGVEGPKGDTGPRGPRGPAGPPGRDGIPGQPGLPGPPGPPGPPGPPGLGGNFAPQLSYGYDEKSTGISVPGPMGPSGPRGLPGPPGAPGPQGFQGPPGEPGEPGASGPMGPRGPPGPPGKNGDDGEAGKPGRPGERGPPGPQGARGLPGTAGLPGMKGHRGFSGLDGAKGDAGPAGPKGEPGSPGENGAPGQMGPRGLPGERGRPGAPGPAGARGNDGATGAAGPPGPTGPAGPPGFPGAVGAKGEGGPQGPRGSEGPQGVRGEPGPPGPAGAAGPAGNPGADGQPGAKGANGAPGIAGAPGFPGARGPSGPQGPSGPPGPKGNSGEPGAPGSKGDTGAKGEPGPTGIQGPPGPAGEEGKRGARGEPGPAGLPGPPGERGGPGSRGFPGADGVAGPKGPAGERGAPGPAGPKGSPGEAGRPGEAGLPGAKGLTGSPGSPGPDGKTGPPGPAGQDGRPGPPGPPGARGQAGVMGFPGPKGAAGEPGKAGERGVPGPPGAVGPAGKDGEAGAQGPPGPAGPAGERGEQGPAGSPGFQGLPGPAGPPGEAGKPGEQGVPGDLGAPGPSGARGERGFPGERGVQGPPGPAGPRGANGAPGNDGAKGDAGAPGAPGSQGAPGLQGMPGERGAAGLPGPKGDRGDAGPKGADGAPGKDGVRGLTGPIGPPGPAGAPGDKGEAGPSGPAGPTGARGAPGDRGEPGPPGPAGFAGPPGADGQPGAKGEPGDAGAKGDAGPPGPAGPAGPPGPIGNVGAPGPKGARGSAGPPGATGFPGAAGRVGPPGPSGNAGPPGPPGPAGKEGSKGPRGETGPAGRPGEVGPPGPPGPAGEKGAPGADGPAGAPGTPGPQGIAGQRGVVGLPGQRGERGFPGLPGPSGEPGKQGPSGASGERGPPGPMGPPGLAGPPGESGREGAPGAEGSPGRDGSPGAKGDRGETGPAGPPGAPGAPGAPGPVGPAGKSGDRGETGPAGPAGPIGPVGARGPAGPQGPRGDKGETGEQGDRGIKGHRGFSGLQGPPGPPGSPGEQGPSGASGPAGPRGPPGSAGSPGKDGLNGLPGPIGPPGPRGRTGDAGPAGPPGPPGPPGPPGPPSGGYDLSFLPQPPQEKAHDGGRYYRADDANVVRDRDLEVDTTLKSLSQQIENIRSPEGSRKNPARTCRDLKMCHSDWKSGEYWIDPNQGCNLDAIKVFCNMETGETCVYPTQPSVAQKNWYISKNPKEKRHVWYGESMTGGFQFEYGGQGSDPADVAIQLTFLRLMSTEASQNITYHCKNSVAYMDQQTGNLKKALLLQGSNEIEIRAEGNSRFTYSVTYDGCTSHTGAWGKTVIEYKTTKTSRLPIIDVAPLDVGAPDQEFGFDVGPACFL
Sequence of UniProt P05813 (whole entry, looked up): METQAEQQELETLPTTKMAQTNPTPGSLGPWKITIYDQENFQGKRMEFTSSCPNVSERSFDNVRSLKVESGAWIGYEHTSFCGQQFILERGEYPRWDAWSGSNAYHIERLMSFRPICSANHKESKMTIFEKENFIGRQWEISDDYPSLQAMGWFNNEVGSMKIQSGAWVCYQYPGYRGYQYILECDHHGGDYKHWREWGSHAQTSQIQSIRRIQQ
Sequence of UniProt P53350 (whole entry, looked up): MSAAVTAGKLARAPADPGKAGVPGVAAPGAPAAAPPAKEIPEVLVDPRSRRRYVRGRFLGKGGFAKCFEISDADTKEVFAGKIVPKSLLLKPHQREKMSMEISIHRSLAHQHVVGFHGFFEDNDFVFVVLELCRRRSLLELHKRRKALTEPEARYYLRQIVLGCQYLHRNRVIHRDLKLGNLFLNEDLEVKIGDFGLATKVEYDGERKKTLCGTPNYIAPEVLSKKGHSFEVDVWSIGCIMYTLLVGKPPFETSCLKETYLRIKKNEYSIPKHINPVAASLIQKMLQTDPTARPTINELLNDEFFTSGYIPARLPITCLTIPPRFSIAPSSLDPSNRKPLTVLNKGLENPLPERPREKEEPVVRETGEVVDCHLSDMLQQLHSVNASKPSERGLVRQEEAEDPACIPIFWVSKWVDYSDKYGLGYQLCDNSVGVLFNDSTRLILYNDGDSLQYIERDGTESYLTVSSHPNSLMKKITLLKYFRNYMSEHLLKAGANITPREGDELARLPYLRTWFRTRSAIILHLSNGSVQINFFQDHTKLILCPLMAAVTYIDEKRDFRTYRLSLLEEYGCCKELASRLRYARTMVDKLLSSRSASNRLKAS

Molecule | tested on | assay | test system | conditions | scale | quantity | result
GOLGA3 (Homo sapiens, UniProt Q08378) | PRKAR2B (Homo sapiens, UniProt P31323) | Western blot densitometry | – | rescue by overexpression, with: st-Ht31 | higher = more protein | RIIβ-FLAG protein level | 0.6
CSF2 residues 3-end (Homo sapiens) | CSF2RB (Homo sapiens, UniProt P32927) | radioligand binding | TF-1 | – | reference: full-length GM-CSF, higher = tighter binding | lower KD of high-affinity site | 92%
Etv2 (Mus musculus, UniProt P41163) | Gata2 (Mus musculus, UniProt O09100) | Lmo2 enhancer luciferase | C2C12 | – | higher = more activation | reporter activity | 18 fold
B1 (Kcnt2) | Kcnt1 (Rattus norvegicus, UniProt Q9Z258-1) | two-electrode voltage clamp | Xenopus oocytes | – | reference: partner alone, higher = larger current | whole-oocyte current | 18 fold
AAEDWCKKGDT | – | – | peptide, human polyclonal IgM RF STR | concentration not given, 5 µg/mL mAb II-481 coated, with: RF at 50% max binding concentration | – | inhibition | 0%
LHST (CENPU residues 75-78, macrocycle 18-ring, imidazolium, pThr, C-amide; macrocycle 18-ring, imidazolium, pThr, C-amide) | PLK1 (Homo sapiens, UniProt P53350) | competition with ligand, ELISA | peptide, lysate | – | – | IC50 | 830 nM
RCVRLHESCLGQQVPCCDPCATCYCRFFNAFCYCRKLGTAMNPCSRT (AGRP 86-132 (Homo sapiens, UniProt O00253); sequence looked up) | MC4R (Homo sapiens, UniProt P32245) | cAMP, inverse agonist, AlphaScreen | HEK293 | apparent | – | inverse agonist EC50 | 2.4 nM
SGVPDRF | – | – | peptide, human polyclonal IgM RF MCC | concentration not given, 5 µg/mL mAb II-481 coated, with: RF at 50% max binding concentration | – | inhibition | 80%
FGF2 (Homo sapiens, UniProt P09038) | FGFR3 isoform IIIc (unknown, UniProt Q61851) | cell proliferation, MTT | BaF3-FGFR3c | 20 nM, 48 h, with: chondroitin sulfate D 4.9 µg/mL | reference: FGF 1 with heparin, higher = more proliferation | cell proliferation | 1%
DIIRNIARHLAQVGDSMDRS (BID BH3 peptide, 20-mer (Homo sapiens)) | BCL2L1 1-200 (Homo sapiens, UniProt Q07817-1) | ITC | peptide | one-site fit | – | ΔH | -6.45 kcal/mol
B2 (CRYBB1 1-190) | CRYBA1, Alexa Fluor 488 label (Homo sapiens, UniProt P05813) | FRET | – | pH 7.5, 37 °C, 100 mM NaCl | – | subunit exchange rate | 0.0245 ± 0.0044 min⁻¹
B3 (UGT1A9) | O=C1[C@H](CC[C@H](O)c2ccc(F)cc2)[C@@H](c2ccc(O)cc2)N1c1ccc(F)cc1 | steady-state kinetics | – | pH 7.4, 37 °C | – | Vmax/Km | 0.3 µL/min/mg
collagen I (Bos taurus, UniProt P02453) | DDR1 R105A (Homo sapiens, UniProt Q08345-2) | blot | HEK293 | 24 h | reference: WT, lower = less shedding | DDR1 ectodomain shedding | 75%
CGA/LHB (Equus caballus) | LHCGR L469R (eel) | cAMP response, agonist, HTRF | CHO-K1 | 30 min, room temperature | – | EC50 | 0.708 µg/mL

A few entries again:
Molecule | tested on | assay | test system | conditions | scale | quantity | result
DIIRNIARHLAQVGDSMDRS (BID BH3 peptide, 20-mer (Homo sapiens)) | BCL2L1 1-200 (Homo sapiens, UniProt Q07817-1) | ITC | peptide | one-site fit | – | ΔH | -6.45 kcal/mol
